Assay results pooled from the literature.
Protocols differ between the studies behind these lines. Values joined by “and” are separate records of one study, mostly repeats; a detail may differ. Numbers after ± are the reported error.
CDC42BPG: Serine/threonine-protein kinase MRCK gamma (CDC42BPG, Homo sapiens, UniProt Q6DT37)
UniProt Q6DT37, sequence (whole entry, looked up): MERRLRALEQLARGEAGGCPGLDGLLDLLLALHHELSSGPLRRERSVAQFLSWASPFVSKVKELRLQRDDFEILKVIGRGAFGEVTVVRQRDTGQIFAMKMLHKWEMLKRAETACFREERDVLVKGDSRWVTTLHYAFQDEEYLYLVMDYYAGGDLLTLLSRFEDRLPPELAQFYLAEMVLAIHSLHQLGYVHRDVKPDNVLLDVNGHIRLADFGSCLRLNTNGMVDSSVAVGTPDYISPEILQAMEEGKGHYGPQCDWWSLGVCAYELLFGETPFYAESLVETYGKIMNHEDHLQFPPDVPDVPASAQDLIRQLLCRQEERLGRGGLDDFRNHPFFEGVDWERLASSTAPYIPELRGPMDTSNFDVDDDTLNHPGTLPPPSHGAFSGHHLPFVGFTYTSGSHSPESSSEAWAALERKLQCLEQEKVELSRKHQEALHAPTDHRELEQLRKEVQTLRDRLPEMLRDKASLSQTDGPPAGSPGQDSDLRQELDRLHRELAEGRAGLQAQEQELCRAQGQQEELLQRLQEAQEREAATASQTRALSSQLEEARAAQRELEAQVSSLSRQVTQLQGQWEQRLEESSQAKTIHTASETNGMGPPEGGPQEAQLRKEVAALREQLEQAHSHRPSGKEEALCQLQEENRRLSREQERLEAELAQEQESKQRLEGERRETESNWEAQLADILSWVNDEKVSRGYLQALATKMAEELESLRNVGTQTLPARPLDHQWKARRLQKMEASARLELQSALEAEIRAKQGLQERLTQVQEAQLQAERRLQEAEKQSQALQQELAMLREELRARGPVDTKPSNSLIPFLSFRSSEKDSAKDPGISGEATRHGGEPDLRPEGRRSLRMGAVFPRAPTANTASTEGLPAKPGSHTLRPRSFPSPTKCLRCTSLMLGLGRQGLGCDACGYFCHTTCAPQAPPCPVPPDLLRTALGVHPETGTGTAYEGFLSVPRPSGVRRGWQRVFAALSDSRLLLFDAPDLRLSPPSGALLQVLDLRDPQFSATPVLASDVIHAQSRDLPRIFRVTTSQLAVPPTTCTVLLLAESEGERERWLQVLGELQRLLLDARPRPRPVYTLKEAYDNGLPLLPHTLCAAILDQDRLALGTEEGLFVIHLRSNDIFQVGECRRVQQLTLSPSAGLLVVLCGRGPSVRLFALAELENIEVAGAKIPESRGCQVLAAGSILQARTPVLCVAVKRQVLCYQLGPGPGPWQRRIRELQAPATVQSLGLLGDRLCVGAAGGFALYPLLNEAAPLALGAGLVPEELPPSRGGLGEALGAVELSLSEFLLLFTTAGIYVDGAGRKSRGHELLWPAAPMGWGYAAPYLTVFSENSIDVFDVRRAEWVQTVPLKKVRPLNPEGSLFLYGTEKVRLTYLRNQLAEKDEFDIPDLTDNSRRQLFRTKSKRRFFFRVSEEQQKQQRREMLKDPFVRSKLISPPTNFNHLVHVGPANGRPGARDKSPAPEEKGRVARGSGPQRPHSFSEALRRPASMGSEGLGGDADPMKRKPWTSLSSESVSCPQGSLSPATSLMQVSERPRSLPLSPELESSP
ache: Acetylcholinesterase (ache, Electrophorus electricus, UniProt O42275)
UniProt D0VWV4, sequence (whole entry, looked up): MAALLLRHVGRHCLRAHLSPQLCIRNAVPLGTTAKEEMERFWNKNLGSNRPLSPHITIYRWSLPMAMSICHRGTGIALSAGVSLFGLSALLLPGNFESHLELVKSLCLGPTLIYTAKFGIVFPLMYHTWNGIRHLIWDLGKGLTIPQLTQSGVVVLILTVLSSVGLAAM
UniProt O42275, sequence (whole entry, looked up): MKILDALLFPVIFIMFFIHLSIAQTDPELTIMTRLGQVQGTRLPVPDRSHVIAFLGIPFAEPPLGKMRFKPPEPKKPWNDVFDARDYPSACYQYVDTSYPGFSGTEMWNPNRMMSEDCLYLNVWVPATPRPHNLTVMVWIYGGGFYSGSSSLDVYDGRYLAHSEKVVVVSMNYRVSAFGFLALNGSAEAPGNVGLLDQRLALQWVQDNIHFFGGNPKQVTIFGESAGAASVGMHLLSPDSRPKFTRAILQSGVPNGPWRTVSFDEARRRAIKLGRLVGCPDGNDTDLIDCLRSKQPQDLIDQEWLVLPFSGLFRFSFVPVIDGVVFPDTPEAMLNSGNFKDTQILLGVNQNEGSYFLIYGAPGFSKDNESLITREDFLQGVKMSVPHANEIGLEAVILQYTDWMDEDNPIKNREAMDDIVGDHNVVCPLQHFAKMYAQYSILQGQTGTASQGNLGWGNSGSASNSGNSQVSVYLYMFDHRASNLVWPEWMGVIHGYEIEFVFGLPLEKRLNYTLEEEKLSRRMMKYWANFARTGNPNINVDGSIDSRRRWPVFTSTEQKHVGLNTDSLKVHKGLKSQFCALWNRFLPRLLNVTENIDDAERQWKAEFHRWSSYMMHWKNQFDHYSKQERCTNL
UniProt Q007T0, sequence (whole entry, looked up): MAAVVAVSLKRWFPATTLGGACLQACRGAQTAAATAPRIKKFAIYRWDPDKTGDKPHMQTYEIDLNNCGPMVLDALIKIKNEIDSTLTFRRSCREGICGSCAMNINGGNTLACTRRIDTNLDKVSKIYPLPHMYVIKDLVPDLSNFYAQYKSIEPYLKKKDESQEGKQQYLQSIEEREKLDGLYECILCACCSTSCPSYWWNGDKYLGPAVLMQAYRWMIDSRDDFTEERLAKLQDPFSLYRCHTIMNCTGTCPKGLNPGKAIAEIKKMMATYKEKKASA
UniProt A5GZW8, sequence (whole entry, looked up): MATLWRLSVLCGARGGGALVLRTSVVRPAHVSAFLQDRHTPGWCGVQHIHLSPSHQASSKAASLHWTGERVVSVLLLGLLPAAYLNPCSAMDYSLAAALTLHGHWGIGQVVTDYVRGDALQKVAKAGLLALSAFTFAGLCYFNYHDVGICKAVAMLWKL
UniProt O95835, sequence (whole entry, looked up): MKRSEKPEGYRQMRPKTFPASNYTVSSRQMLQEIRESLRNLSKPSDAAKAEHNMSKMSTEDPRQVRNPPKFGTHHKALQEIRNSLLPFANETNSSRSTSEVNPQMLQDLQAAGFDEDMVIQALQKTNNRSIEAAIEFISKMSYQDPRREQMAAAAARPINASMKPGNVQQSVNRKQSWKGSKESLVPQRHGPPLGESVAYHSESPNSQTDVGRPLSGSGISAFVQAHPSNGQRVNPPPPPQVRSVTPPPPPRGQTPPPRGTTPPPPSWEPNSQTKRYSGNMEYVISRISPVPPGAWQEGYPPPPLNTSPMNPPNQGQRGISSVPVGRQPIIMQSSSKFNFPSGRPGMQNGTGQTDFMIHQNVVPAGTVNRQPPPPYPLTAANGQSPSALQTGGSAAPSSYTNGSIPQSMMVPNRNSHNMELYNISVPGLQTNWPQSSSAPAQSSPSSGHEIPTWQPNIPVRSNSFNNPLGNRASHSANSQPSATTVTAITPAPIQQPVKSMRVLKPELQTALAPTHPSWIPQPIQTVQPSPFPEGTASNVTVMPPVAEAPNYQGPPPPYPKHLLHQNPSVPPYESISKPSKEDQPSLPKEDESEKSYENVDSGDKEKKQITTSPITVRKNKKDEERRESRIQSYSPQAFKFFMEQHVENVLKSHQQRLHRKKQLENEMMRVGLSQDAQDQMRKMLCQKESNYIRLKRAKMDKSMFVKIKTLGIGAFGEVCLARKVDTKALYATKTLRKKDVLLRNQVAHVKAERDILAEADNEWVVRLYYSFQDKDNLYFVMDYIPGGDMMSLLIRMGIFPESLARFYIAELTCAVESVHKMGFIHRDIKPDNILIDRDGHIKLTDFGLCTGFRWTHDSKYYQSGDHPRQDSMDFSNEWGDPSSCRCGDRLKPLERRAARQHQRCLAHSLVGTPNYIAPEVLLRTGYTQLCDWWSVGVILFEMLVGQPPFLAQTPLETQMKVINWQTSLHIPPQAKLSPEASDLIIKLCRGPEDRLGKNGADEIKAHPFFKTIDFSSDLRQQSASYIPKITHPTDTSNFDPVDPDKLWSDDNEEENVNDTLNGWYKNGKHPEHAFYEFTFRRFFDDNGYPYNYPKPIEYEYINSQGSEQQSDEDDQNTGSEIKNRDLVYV
UniProt Q9Y3R4, sequence (whole entry, looked up): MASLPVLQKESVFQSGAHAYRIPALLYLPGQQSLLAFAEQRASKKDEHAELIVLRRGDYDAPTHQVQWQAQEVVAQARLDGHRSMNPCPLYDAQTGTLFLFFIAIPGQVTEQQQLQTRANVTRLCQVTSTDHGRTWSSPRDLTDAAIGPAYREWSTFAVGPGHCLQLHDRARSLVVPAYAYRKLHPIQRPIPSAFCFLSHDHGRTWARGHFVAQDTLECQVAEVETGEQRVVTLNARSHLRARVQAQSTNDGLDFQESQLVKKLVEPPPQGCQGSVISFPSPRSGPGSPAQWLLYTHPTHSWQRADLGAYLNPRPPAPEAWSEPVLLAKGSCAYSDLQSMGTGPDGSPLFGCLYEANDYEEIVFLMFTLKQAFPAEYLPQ
UniProt Q96CP6, sequence (whole entry, looked up): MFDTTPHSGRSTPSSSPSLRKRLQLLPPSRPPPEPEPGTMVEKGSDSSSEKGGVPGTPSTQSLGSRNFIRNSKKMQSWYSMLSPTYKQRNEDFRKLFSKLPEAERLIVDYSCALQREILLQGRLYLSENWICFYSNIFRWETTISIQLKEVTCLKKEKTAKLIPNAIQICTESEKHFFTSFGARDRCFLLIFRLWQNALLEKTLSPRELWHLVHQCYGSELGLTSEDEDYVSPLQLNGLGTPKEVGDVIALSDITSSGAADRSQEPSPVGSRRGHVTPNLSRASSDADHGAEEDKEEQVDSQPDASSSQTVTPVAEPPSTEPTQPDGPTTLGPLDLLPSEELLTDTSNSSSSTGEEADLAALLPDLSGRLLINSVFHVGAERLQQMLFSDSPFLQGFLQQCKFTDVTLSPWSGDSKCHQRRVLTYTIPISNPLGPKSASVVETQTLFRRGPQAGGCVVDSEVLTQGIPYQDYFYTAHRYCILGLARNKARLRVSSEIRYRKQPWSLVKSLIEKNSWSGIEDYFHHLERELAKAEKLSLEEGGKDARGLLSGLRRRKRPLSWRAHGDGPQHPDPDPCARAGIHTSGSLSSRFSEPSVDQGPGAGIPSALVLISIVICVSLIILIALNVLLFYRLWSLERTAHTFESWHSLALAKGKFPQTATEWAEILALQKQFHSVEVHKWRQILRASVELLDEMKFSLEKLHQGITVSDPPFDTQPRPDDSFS

SMILES | tested on | test | test system | conditions | how to read | quantity | result
CC(C)C[C@H](NC(=O)[C@H](Cc1cccc2ccccc12)NC(=O)OCc1ccccc1)C(=O)NC(C[C@@H]1CCNC1=O)C1OC1S(C)(=O)=O (some centres unmarked) | Genome polyprotein, protease domain (Lordsdale virus, UniProt P54634) | enzyme activity, FRET | – | 37 °C | – | IC90 | > 100 µM
Cc1nn(C)cc1-c1nc2c(N3CCN(Cc4ccc(Cl)cc4)CC3)c(Cl)cnc2[nH]1 | CDC42BPG | binding, KINOMEscan | – | 1 µM | – | remaining binding | 100%
CC=O | ADH1 (Saccharomyces cerevisiae, UniProt P00330, H49Q) | reduction, substrate | – | pH 7.3, 30 °C | – | kcat | 3000 s⁻¹
COc1ccc2[nH]c3c(c2c1)CCN(C)CC3.Cl | Nicotinic acetylcholine receptor alpha9/alpha10 (Rattus norvegicus, UniProt P43144+Q9JLB5) | ion current, inhibitor, two-electrode voltage clamp | Xenopus laevis oocytes, rat | together with: 10 µM acetylcholine | – | Hill coefficient | 1.6 ± 0.2
CCCCCCCCCC(=O)CC(=O)N[C@H]1CCOC1=O | Regulatory protein SdiA (sdiA, Escherichia coli, UniProt P07026) | – | – | – | – | Emax | 111%
O=C(Nc1cnccc1Cl)N1CCN(Cc2ccc3c(c2)OC(F)(F)O3)CC1 | EGF receptor | – | – | concentration not given | – | inhibition | -7% and -1%
CCN(CC)CCCC[C@H](NC(=O)[C@H](CC(C)C)NC(=O)[C@H](C)NC(=O)[C@H](Cc1ccccc1)NC(=O)c1ccc(C(C)(C)C)cc1)C(=O)N[C@@H](CO)C(=O)OC | ADORA1 (Homo sapiens, UniProt P30542) | antagonist, radioligand binding | – | 10 µM | reference: control binding | specific binding | 96.3%
CN(C)c1ccc(-c2nc(-c3cccs3)c(-c3cccs3)[nH]2)cc1 | Vero-E6 | CellTiter-Glo ATP | – | concentration not given, 72 h, retest 8-point duplicates | reference: DMSO 0%, hyamine -100%, more negative, more toxic | cytotoxicity efficacy | 0%
Nc1ncnc2c1ncn2[C@@H]1O[C@H](COP(=O)(O)OP(=O)(O)O)[C@@H](O)[C@H]1O | Cell cycle histidine kinase CckA, G318A; cytoplasmic region (Caulobacter vibrioides, UniProt Q9X688, G318A) | binding, ITC | – | together with: without c-di-GMP | – | association constant | 4860 ± 1720 M⁻¹
[2H]c1c([2H])c([C@]2([2H])CCCN2C(=O)C(C)(C)Oc2ccc3cn[nH]c3c2)c([2H])c([2H])c1C([2H])([2H])[2H] | MAPK14 (Homo sapiens, UniProt Q16539) | KINOMEscan | – | 1 µM | reference: DMSO control | remaining binding | 83%
CN[C@@]1(c2ccccc2Cl)CCCCC1=O | OPRM1 (Homo sapiens, UniProt P35372) | radioligand binding, agonist, radioligand displacement | – | 30 µM | – | inhibition | 58%
CC(C)(COP(=O)(O)O)[C@@H](O)C(=O)NCCCOP(=O)(O)OC[C@H]1O[C@@H](n2ccc(N)nc2=O)[C@H](O)[C@@H]1O | phosphopantothenoylcysteine synthetase | enzyme activity | – | – | reference: IC50 human over bacterial | selectivity ratio | 145 to 1000 fold
COc1cc(Br)cc(Br)c1Oc1cc(Br)cc(Br)c1O | SULT1E1 (Homo sapiens, UniProt P49888) | sulfonation, substrate | – | – | – | apparent Vmax | 9.16 nmol/min/mg protein
O=C(NNC(=O)c1csnn1)c1ccc(Cl)cc1 | Acetyl-CoA synthetase (Cryptococcus neoformans, UniProt J9VFT1) | – | – | 391 nM | – | remaining activity | 90.4%
CC1=C2C[C@H]3[C@@H](CC=C4C[C@@H](O)CC[C@@]43C)[C@@H]2CC[C@]12O[C@@H]1C[C@H](C)CN[C@H]1[C@H]2C | Protein smoothened (SMO, Homo sapiens, UniProt Q99835) | GTPγS binding | CHO stably expressing human SMO | concentration not given | – | decrease of basal signal | 70.5 ± 1.9%
O=c1cc(CSc2ccc(N=Cc3ccccc3)cc2)occ1O | PPO3 (Agaricus bisporus, UniProt C7FF04) | fluorescence quenching | – | – | – | Stern-Volmer constant | 92500 L/mol
Cc1ccc([C@H]2C[C@@H]2COc2cc(NCc3nnc(C)s3)nc(C)n2)nc1 | PDE7A (Homo sapiens, UniProt Q13946) | enzyme activity, inhibitor, IMAP fluorescence polarization | – | – | reference: Ki target over Ki PDE10A2 | selectivity ratio | > 2.59e+06 fold
COc1cc(Nc2ncc(F)c(Nc3ccc4c(n3)NC(=O)C(C)(C)O4)n2)cc(OC)c1OC | LATS1 (Homo sapiens, UniProt O95835) | KINOMEscan | – | 10 µM | – | inhibition | 39%
CCN(CC)CCCNC(=O)c1ccc(-c2nc(CN3CCc4ccccc43)c(C)o2)cc1 | Vero-E6 | CellTiter-Glo ATP | – | 72 h, second round 5-point | reference: DMSO 0%, hyamine -100%, more negative, more toxic | maximum response | -3.06%
Nc1ncc(-c2nc(N3CCOCC3)nc(N3CCOCC3)n2)c(C(F)F)n1 | CDC42BPG | KINOMEscan | – | 10 µM | reference: control | remaining binding | 77%
N=C(N)Nc1ccc(C(=O)Nc2ccc3c(c2)B(O)OC3)cc1 | Genome polyprotein, NS2B-NS3 protease (West Nile virus, UniProt P06935) | enzyme activity, FRET | – | 50 µM, together with: substrate 50 µM | – | inhibition | 56 ± 1%

SMILES | tested on | test | test system | conditions | how to read | quantity | result
CN1CCN(c2cc(-c3ccncc3)c(-c3ccc4ccccc4c3)nn2)CC1 | AVPR2 (Homo sapiens, UniProt P30518) | agonist, FLIPR | – | 12.5 µM | – | activation | -0.4%
O=C(c1ccc(Cl)cc1)N1CCN2C(=O)N(OC(=O)N3CCOc4ccccc43)C(=O)C2C1 (centres unmarked) | Actin, aortic smooth muscle (ACTA2, Homo sapiens, UniProt P62736) | MS-based ABPP | SW-620 conditioned medium | 10 µM, 1 h, 37 °C | reference: compound over DMSO, lower = more inhibition | peptide ratio | 1.01 and 0.89 and 1.13 and 0.96 and 0.92
COc1cc(N)c(Cl)cc1C(=O)NC1CN2CCC1CC2 (centres unmarked) | Adhesion G protein-coupled receptor A1 (ADGRA1, Homo sapiens, UniProt Q86SQ6) | β-arrestin recruitment, TANGO luminescence, measured: GPR123 | – | concentration not given | reference: basal luminescence | log2 fold change | 0.021
O=C(CF)NC1C(O)CC(OC2C(O)C(CO)OC(Oc3ccc([N+](=O)[O-])cc3)C2O)(C(=O)O)OC1C(O)C(O)CO (centres unmarked) | Sialidase-2 (Homo sapiens, UniProt Q9Y3R4) | substrate | – | 10 min, pH 5.0, 37 °C | – | kcat | 0.27 ± 0.01 s⁻¹
O=C[C@H](O)COP(=O)(O)O | Triosephosphate isomerase (Trypanosoma brucei, UniProt Q385L6, P168A/I172A) | substrate | – | – | – | Km | 51 µM
O=C(Nc1cccnn1)N1CCC(=Cc2cccc(Oc3ccc(C(F)(F)F)cn3)c2)CC1 | dopamine D4.2 receptor, human | binding | – | 50 µM, together with: [3H]spiperone | – | inhibition | 29%
CC(C)(C)[C@]1(O)CC2OC(=O)CC23C(=O)OC2OC(=O)[C@H](O)C231 (some centres unmarked) | Rdl (Drosophila melanogaster, UniProt P25123) | ion current, inhibitor, two-electrode voltage clamp | – | IC50, together with: GABA at EC50 | – | time constant of onset | 3.7 ± 0.4 s
CCOC(=O)CC(SP(=O)(OC)OC)C(=O)OCC (centres unmarked) | uncharacterized protein (Anopheles coluzzii, UniProt A0A6E8VQK1) | enzyme activity, inhibitor | Sf9 cell homogenate | 0.2294 µM, 0.1667 h, together with: α-naphthyl acetate substrate | reference: no inhibitor | remaining activity | 52.7%
C=C(CN(C(=O)c1c(C(F)F)nn(C)c1F)C1CC1)c1ccc(Cl)cc1Cl | SDHD/SDHC/SDHB (Sus scrofa, UniProt A5GZW8+D0VWV4+Q007T0) | enzyme activity, inhibitor, DCIP reduction | pig | 0.1 µM, together with: DCIP 5 µM | – | reaction velocity | 0.00206 µM/s and 0.00207 µM/s
Nc1ccc(O)c(C(=O)O)c1 | ppk (Escherichia coli, UniProt P0A7B1) | enzyme activity, inhibitor | – | 1 mM | reference: DMSO | polyP synthesis | inhibited
CC[C@@H](C)[C@@H](NC(=O)[C@@H](Cc1ccc(O)cc1)NC(=O)[C@H]1CCCN1C(=O)[C@@H](CCCNC(=N)N)NC(=O)[C@H](N)Cc1c[nH]cn1)C(=O)N[C@H](C)C(=O)N[C@H](Cc1c[nH]cn1)C(=O)N[C@H](CCCNC(=N)N)C(=O)N[C@H](CCCCNC(=O)c1cccc(S(=O)(=O)F)c1)C(=O)N[C@H](Cc1ccc(O)cc1)C(=O)N[C@H](CO)C(=O)N[C@H](Cc1ccccc1)C(N)=O | Transferrin receptor protein 1 (Tfrc, Mus musculus, UniProt Q62351) | flow cytometry | B16 | 2 h, unit not given | reference: 0 h | surface TFRC expression | 0.873
O=C(O)COP(=O)(O)O | Triosephosphate isomerase (TPI1, Gallus gallus, UniProt P00940, G210A/S211G/Y208T) | enzyme activity, competitive inhibitor, GPDH/NADH-coupled | – | pH 5.7, 25 °C, ionic strength 0.1 NaCl, together with: glyceraldehyde 3-phosphate substrate | reference: mutant over wild type | Ki ratio | 1610
CCC[N+]1(CC)CCN(c2ccc(C#N)cc2)CC1.[I-] | CHRNA9 (Homo sapiens, UniProt Q9UGM1) | agonist, two-electrode voltage clamp | Xenopus laevis oocytes | alpha9 expressed alone, with RAPSYN, unit not given | reference: acetylcholine maximum | maximal response | 0.97 ± 0.06
O=[As](O)(O)c1ccc(Cc2ccc([As](=O)(O)O)cc2)cc1 | Autotaxin (ENPP2, Homo sapiens, UniProt Q13822) | – | – | 10 µM, 30 min, together with: FS-3 | reference: enzyme alone | product formation | 98%
COc1ccc(N2C(=O)N(c3c(C)cccc3Cl)Cc3cnc(Nc4ccc(C5CCN(C)CC5)cc4OC)nc32)nc1 | Aurora kinase C (AURKC, Homo sapiens, UniProt Q9UQB9) | kinase activity, inhibitor | – | 0.5 µM, kinase AURORA-C | – | inhibition | 6%
O=c1c2ccccc2oc2cc(OCCCCc3ccccc3)ccc12 | ache | enzyme activity | – | 2.91 µM, together with: substrate 6.90 mM | higher = faster reaction | reaction velocity | 0.003 a.u.
O=C(O)C(/C=C/c1c(Cl)cccc1Cl)=N\Nc1nc(-c2ccc(Br)cc2)cs1 | ache | Ellman | – | – | reference: IC50 BChE over IC50 AChE | selectivity index | 12.9
CC(C)[C@@H](O)CC[C@@H](C)[C@H]1CC[C@H]2[C@@H]3CC=C4C[C@@H](O)CC[C@]4(C)[C@H]3CC[C@]12C | Glutamate NMDA receptor; GRIN1/GRIN2B (GRIN1/GRIN2B, Homo sapiens, UniProt Q05586+Q13224) | ion current, positive allosteric modulator, two-electrode voltage clamp | Xenopus oocytes | 10 µM, wild type, together with: 100 µM glutamate and glycine | reference: absence of compound | current potentiation | 174 ± 4.9%
CNS(=O)(=O)C(F)(F)C(F)(F)C(F)(F)C(F)(F)C(F)(F)C(F)(F)C(F)(F)C(F)(F)F | FABP1 (Homo sapiens, UniProt P07148) | affinity selection mass spectrometry | – | 100 nM, together with: pooled compounds | reference: other proteins | binding fold change | 74.9
C[C@H]1CN(c2n[nH]c3nc(N[C@H]4CC[C@H](NS(=O)(=O)CCC(F)(F)F)CC4)ncc23)CCO1 | Protein Aster-A (Homo sapiens, UniProt Q96CP6) | Kinobeads competition, measured: GRAMD1A | – | 0.8 µM, unit not given | reference: vehicle | remaining binding | 1.33
